Experimental data of several laboratories.
Each numbered part is a random draw from the data of one study; scales do not carry over between parts.

Study 1
Target: Centromere-binding protein 1, full length, His-tagged (CBF1, Saccharomyces cerevisiae, UniProt P17106, residues 1-351)
Sequence of UniProt P17106 (whole entry, looked up): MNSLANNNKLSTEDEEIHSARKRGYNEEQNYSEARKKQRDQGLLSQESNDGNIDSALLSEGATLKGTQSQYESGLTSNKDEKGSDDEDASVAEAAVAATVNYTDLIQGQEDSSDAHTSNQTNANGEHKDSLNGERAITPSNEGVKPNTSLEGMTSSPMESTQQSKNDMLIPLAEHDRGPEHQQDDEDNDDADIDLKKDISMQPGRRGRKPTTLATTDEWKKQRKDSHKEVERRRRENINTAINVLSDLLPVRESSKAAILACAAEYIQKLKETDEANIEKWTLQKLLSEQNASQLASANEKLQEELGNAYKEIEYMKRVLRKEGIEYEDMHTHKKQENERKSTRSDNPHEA
Method: competition protein-binding microarray
Molecule type: double-stranded DNA, one strand shown
Sample: in vitro
Tested at: 2 µM
Notes: whole 60-bp probe, lowest competitor level
Together with: Pho4 competitor, 0.05 µM
Direction: higher = stronger binding
Sequence | fluorescence intensity [a.u.]
GAACTAATATTCCGTCACGTCACTTAAGTGCAAGGTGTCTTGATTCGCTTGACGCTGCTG | 182
CTTCTGTAAATTTGGCACGTGGGTGGACGCGCCCCGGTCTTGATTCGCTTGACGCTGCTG | 1290
CAGATGTTCGTGTAATGGTACCCGACACTCGATGAGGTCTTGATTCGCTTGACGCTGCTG | 61.4
CGGGGTTAAGTTTGGAAAGTGGGTGGCTTGCAGCAGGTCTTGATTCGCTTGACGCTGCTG | 64.6
CGCCGTTCAGGGGTCCATGTGCCTTGGACGATATTAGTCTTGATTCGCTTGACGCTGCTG | 70.1
CGCTACCAACTGCGCCATGTGCCCTGATGACTGTTGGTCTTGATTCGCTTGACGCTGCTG | 88.7
CGTCCTAGTGATTGGGCAGTGGGTGCCATGAGGAAGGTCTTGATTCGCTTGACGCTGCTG | 77.7
GACCGTCAAAGCGTCCACATGAGATCCAATGACACCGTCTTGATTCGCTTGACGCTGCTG | 105
ATAGCAAAGAACCGTCACAGATTCATTATTGACCTTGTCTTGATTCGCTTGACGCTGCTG | 116
TTGACGATTATGATGAACGTGACTCGCAAGAAATATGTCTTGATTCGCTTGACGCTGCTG | 754

Study 2
Substance: PhoQ, residues 284 288 289 292 302 303 NLGVHL
Method: Sort-seq
Refers to: YFP reporter
Sample: E. coli
Notes: PhoQ-PhoP variant library
Together with: 10 µM Mg2+
Relative to: high Mg2+ state
Direction: higher = stronger signaling
target | fold induction
PhoP, residues 12 14 15 18 19 QYFSL (Escherichia coli, UniProt P23836) | 7.91
PhoP, residues 12 14 15 18 19 NYFRM (Escherichia coli, UniProt P23836) | 3.33
PhoP, residues 12 14 15 18 19 TQALL (Escherichia coli, UniProt P23836) | 8.26

Study 3
Target: Interferon regulatory factor 7, full length, phosphomimetic (IRF7, Homo sapiens, UniProt Q92985, residues 1-503, S471D/S472D/S475D/S476D/S477D/S483D/S484D/S487D)
Method: protein-binding microarray
Molecule type: double-stranded DNA, one strand shown
Sample: in vitro
Tested at: 2200 nM top
Notes: 60-bp whole probe
Together with: salmon DNA 0.4 mg/ml
Relative to: random background probes
Direction: higher = stronger binding
All sequences stand within: GCCTAGCAC … GTCTTGATTCGCTTGACGCTGCTG
Residues (chain): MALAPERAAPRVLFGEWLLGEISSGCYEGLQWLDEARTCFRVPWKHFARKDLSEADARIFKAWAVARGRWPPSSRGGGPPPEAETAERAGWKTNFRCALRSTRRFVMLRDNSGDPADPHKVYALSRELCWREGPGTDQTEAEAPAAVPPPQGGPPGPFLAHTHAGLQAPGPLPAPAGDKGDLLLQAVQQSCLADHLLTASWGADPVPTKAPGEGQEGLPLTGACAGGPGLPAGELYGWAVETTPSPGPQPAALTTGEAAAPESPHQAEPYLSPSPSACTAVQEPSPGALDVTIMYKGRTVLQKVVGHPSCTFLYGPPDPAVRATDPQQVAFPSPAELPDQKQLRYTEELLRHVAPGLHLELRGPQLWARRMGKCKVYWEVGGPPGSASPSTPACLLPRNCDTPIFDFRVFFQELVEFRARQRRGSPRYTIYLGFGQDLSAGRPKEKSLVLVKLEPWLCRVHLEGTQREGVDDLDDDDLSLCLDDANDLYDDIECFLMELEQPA
Sequence | fitted relative affinity [z-score]
GTAGGACTGGGGTATCGGTTAGTGCTA | -0.777
TCATATATACTATATGCAACTGTGCTA | 0.694
CTTTGTTTTTTTCTATATGCGTGCTAG | 2.63
TCAGCTTTTTTTCCGAGACTGTGCTAG | 0.621
ATAGGTATCGGTTTCGGTTAGTGCTAG | 7.35
TTAGGTTTCCTTCTCCTTGAGTGCTAG | 2.23
TTAGAGTTCGGGTATCGATTAGTGCTA | 0.16
TCTGTTTTCTCCATGGAAGAGTGCTAG | 3
TTAGGTATCAACTATCGGTTAGTGCTA | 0.247
GACGATTTCAGTTCCTAGACGTGCTAG | 1.85
GGTCCAACAAACAGATCCATGTGCTAG | 0.354
TTACGTCTCCTACTGCTTTAGTGCTAG | 2.16
ACTAGTGTTTTTCTCCTATTGTGCTAG | 1.61

Study 4
Target: Fragile X messenger ribonucleoprotein 1, C-terminal low-complexity region (Fmr1, Mus musculus, UniProt P35922)
Method: RNA Bind-n-Seq
Molecule type: RNA
Sample: in vitro
Tested at: 200 nM
Notes: whole 134-nt RNA, ends assumed
Together with: 150 mM KCl
Relative to: input library
Direction: higher = stronger binding
Sequence | log2 enrichment
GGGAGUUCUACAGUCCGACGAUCUGGGAGGUGGAUUUUGUUUAUUUUUUUAGCUCAUUUCCAGGGGUGGGAAUUUUUUUUUAAUAUGUGUCAUGGAUAAAGUUGUUUUUGAAAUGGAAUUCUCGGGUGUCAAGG | 0.528
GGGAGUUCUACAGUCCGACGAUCGUCCUGUGCUACACAUCGUAUGUACCGAAUCGGAAAAAAAGGAAAAAAAGGAAAAAGGAAAGUAUUAUGUUACGCCGUUCGGAUCUGCACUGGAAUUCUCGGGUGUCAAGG | -0.714
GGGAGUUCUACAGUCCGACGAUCACCAUGCAGGUGGGCAUCUUUGGGAAGUGGGGCAAGGGGGGGAUAGGGAGGGGGUUAACACUUUGGGAACAGGUGGUCCCAGGUCGUUUCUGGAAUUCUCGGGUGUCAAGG | 0.94
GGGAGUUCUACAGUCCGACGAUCUCAAGUCCUGUGCUACACAUCGUAUGUACCGAAUCGGUUUUUUUGGAGGUUUGGAAAGUAUUAUGUUACGCCGUUCGGAUCUGCACUUCCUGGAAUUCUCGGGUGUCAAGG | -0.68
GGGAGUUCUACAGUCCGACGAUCAGUCCUGUGCUACACAUCGUAUGUACCGAAUCGGAAAAGGGGAAAAGGGGAAAAGGGGAAAGUAUUAUGUUACGCCGUUCGGAUCUGCACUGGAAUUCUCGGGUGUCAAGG | 0.262
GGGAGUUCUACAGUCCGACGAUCCUCAAGUCCUGUGCUACACAUCGUAUGUACCGAAUCGGGGCGGGCGGGGCGGGAAAGUAUUAUGUUACGCCGUUCGGAUCUGCACUUCCAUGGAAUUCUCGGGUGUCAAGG | 1.42
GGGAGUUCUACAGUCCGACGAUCGCAGGAAGUAAAAACAAAUGGAAAUGCUUCGGAUAGUGGCUGGGGUGGGGGUUGCUAAGGAAAGGGUGGGAUGGGAGUGGGUAAAGAGUUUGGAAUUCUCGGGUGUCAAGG | 0.293
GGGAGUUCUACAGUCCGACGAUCUGGGAGGUGGAUUUUUUUUAUUUUUUUAGCUCAUUUCCAGGGGUGGGAAUUUUUUUUUAAUAUGUGUCAUGAAUAAAGUUGUUUUUGAAAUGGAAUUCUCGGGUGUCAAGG | 0.437
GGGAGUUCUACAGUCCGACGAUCAAGUCCUGUGCUACACAUCGUAUGUACCGAAUCGGGCCCCGGCCCCGGGGCCCCGGGAAAGUAUUAUGUUACGCCGUUCGGAUCUGCACUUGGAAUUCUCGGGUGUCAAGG | -1.65
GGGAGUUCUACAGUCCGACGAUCCCCGAGCCGGAGAGGGAGCGCGAGCCGCGCCGGCCCCGGUCGGGCCUCCGAAACCAUGAACUUUCUGCUGUCUUGGGUGCAUUGGAGCCUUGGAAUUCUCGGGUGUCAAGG | -0.26
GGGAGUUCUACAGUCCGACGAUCCACAGACAACACGCACCCACACAGACACAGAGUGAAGGGGUUGGGAUGGGGACAGGGUGCACAGCAGGGCGGGGUAGGACCCCAGCCCCUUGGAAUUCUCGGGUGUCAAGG | 1.26
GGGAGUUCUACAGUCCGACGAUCCCUGUGCUACACAUCGUAUGUACCGAAUCAAACCCCCAAACCCCCCCAAACCCCCCCAAAAAAGUAUUAUGUUACGCCGUUCGGAUCUGCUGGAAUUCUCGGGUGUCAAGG | -0.0519
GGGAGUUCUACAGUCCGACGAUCCUCAAGUCCUGUGCUACACAUCGUAUGUACCGAAUCGGAAGGGGAAGGGAAGGGAAAGUAUUAUGUUACGCCGUUCGGAUCUGCACUUCCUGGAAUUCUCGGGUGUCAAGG | 0.953
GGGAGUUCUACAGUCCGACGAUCAGUCCUGUGCUACACAUCGUAUGUACCGAAUCGGUUUUUUGGUUUUUUGGUUUUUUGGAAAGUAUUAUGUUACGCCGUUCGGAUCUGCACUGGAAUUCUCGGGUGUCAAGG | -0.859

Excerpt of the above (study 3):
Sequence | fitted relative affinity [z-score]
GACGATTTCAGTTCCTAGACGTGCTAG | 1.85
GGTCCAACAAACAGATCCATGTGCTAG | 0.354
TTAGGTATCAACTATCGGTTAGTGCTA | 0.247
TTACGTCTCCTACTGCTTTAGTGCTAG | 2.16
